Experimental data pooled from the literature.
Protocols differ between the studies behind these lines. Several values in a cell are separate wells, animals, samples, runs or records.
Target: Serine/threonine-protein kinase Nek2 (NEK2, Homo sapiens, UniProt P51955)
Residues used in one study (P51955 1-445): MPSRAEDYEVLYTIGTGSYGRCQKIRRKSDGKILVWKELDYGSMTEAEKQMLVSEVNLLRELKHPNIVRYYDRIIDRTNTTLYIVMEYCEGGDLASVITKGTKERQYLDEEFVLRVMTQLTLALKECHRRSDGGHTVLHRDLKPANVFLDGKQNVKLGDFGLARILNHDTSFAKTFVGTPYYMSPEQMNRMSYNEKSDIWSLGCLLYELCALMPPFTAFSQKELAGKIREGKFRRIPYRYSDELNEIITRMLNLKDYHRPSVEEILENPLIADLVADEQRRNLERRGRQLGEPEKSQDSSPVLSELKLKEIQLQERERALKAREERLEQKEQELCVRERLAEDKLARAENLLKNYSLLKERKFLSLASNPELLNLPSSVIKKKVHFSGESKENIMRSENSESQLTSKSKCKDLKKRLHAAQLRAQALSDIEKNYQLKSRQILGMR

Structure (SMILES) | assay | test system | conditions | scale | endpoint | result
CNC1C[S+]2CC[S+]3CC[S+](C1)[Ru-4]321([N]=C=S)[n]2c3ccc(OC)cc3c3c4c(c5cc(F)c[n+]1c5c32)C(=O)NC4=O (stereo not shown) | KinomeScan |  | 0.1 µM | relative to: untreated | remaining binding | 100%
CN1CCN(Cc2ccc(-c3ccc(CO[C@H]4CCC[C@@H]4NC(=O)c4cc(-c5cnn(C)c5)cnc4N)cc3)cc2)CC1 | enzyme activity, inhibitor |  | 0.1 µM |  | inhibition | 2%
O=c1c(-c2ccc(Cl)c(CN3CCOCC3)c2)coc2cc(O)ccc12 | enzyme activity, inhibitor |  | 1 µM |  | remaining activity | 81%
CNC(=O)C1CCN(c2cc(C)c(F)cc2NC(=O)c2ccc(-c3cc(O)ccc3C)c(C)c2)CC1 | binding, competition with immobilised ligand |  | 1 µM |  | remaining binding | 97%
CNC(=O)C[C@H](Cc1ccc(C#N)cc1)NC(=O)c1cc(-c2ccc(CN[C@H](C)c3ccc(C)cc3)o2)ccc1Cl | enzyme activity, inhibitor |  | 1 µM |  | activity vs control | 122%
O=C(Cc1ccc(OCc2ccccc2)cc1)NC1(C(=O)O)CCN(C(=O)c2ccc(-c3cccc(Cl)c3)cc2)CC1 | enzyme activity, inhibitor |  | 10 µM |  | activity vs control | 102%
Cc1[nH]nc2c1N=C(c1ccccc1Cl)c1cnc(N3CCOCC3)cc1N2 | enzyme activity, inhibitor |  | 0.5 µM |  | inhibition | 3.2%
N[C@H]1CC[C@H](Nc2nccc(-c3cccnc3Oc3ccc(NC(=O)NC4CC4)c4ccccc34)n2)CC1 | kinobead competition pulldown | HEK293/HCT116 lysate mixture | 10 µM, 1 h, 4 °C | lower = stronger competition | log2 LFQ intensity | 19.5 and 20.8 and 20.9 and 20.3
CN1CC[C@@H](COc2cnc(C#N)cc2-c2ccn3nc(NC(=O)C4CC4)cc3c2)C1 | enzyme activity, inhibitor |  | 1 µM |  | inhibition | -5%
CCn1cc(C(=O)O)c(=O)c2c(N)c(F)c(NC3CCCCC3)cc21 | kinase activity |  | 0.1 µM, added: ATP at Km |  | inhibition | 18.9%
COc1ccc(NC(=O)Nc2ccc3c(c2)C(=O)N(C(C)CO)CC(C)C(CN(C)Cc2ccc4c(c2)OCO4)O3)cc1 (stereo not shown) | kinase activity, KinaseProfiler |  | 0.03 µM, species human | relative to: control | remaining activity | 109%
Cc1ccc(C)c(-c2ccc3nc(NC(=O)C4CCCCC4)nn3c2)c1 | enzyme activity, Dundee kinase panel |  | 10 µM |  | remaining activity | 77%
COc1cc(-n2cc3cc(F)cc(C(N)=O)c3n2)cc(Cl)c1C1CC(O)(CCO)Cc2ccccc21 (stereo not shown) | enzyme activity, inhibitor |  | 10 µM |  | inhibition | 0.79%
CC(C)=CC1OC(C)(C)C2C=C3C(=O)C(Cl)=CC(O)C3C3C(O)C4OC4C(=O)C132 (stereo not shown) | cell-free assay, competition with immobilised ligand |  | 10 µM |  | remaining binding | 94%
Cc1nc2c(F)cc(-c3nc(Nc4ccc(CNC(=O)CCCCCCC(=O)NO)cc4)ncc3F)cc2n1C(C)C | enzyme activity, inhibitor |  | 1 µM |  | inhibition | 76%
Cc1cccc(O[C@H]2CCC[C@@H](C(C)CNCc3ccncc3)C2)c1 (relative stereo) | enzyme activity, inhibitor |  | 1 µM |  | inhibition | 1%
C=CC(=O)N1CCc2ccc(-n3c(=O)ccc4cnc5ccc(-c6cnn(C)c6)cc5c43)cc21 | KINOMEscan |  | 1 µM | relative to: DMSO control | remaining binding | 92%
NC(=O)[C@@H](O)C[C@H]1CCc2sc3ncnc(O[C@H]4CC[C@H](N5CCOCC5)CC4)c3c21 | enzyme activity, inhibitor |  | 10 µM |  | inhibition | 0%
COc1cc(Nc2nc(C)cc(-c3cnn4nc(OC)ccc34)n2)cc(C(F)(F)F)c1 | inhibitor |  | 1 µM | relative to: control | remaining activity | 98%
Cc1cccc(-c2ccc3nc(NC(=O)C4CCOCC4)nn3c2)c1 | enzyme activity, Dundee kinase panel |  | 10 µM |  | remaining activity | 83%
Nc1nc(Nc2ccccc2)sc1C(=O)c1ccccc1 | enzyme activity, inhibitor |  | 10 µM |  | remaining activity | 68%
C=CC(=O)Nc1cccc(-c2cnc3[nH]cc(C(=O)NC(C)(C)C)c3n2)c1 | enzyme activity, inhibitor |  | 0.1 µM |  | inhibition | 14%

Repeated from above:
Structure (SMILES) | assay | test system | conditions | scale | endpoint | result
CNC(=O)C1CCN(c2cc(C)c(F)cc2NC(=O)c2ccc(-c3cc(O)ccc3C)c(C)c2)CC1 | binding, competition with immobilised ligand |  | 1 µM |  | remaining binding | 97%
CNC(=O)C[C@H](Cc1ccc(C#N)cc1)NC(=O)c1cc(-c2ccc(CN[C@H](C)c3ccc(C)cc3)o2)ccc1Cl | enzyme activity, inhibitor |  | 1 µM |  | activity vs control | 122%
